Measurements from different studies.
Each numbered part is a random draw from the data of one study; scales do not carry over between parts. Positions count from the first letter of the parent shown.

Set 1
Target: Centromere-binding protein 1, full length, His-tagged (CBF1, Saccharomyces cerevisiae, UniProt P17106, residues 1-351)
Chain of UniProt P17106 (whole entry, looked up): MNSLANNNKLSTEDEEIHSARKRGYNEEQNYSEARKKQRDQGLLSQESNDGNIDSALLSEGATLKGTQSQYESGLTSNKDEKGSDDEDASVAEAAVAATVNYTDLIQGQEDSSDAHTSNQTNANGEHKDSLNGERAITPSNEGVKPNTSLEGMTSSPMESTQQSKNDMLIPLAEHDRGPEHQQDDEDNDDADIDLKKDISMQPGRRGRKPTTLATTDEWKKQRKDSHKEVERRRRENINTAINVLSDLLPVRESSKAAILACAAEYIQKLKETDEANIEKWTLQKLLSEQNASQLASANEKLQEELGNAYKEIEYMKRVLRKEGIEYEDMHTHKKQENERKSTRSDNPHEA
Technique: competition protein-binding microarray
Form: double-stranded DNA, one strand shown
Matrix: in vitro
Tested at: 2 µM
Setting: whole 60-bp probe, lowest competitor level
With: Pho4 competitor, 0.05 µM
Reading: higher = stronger binding
Endpoint: fluorescence intensity
CTTTCCCGATCTTGTGTTGTGGGTGTAGCACATTTGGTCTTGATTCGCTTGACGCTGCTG: 92.4 a.u.
GTTCTGGTGGTGGTTACCGTGCCAGGTTGTCTGGTGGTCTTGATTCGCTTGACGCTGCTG: 62.4 a.u.
GAATTGTGGCCGCGACACCTGACAAACAATCCTCAGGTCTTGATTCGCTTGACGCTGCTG: 187 a.u.
AAAGCGGTAATTTGTTGCGTGGGTGCAGATATCTATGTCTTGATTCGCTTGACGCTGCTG: 93 a.u.
AAATTGGCCACAAGCATCGTGCCGAGCAAATTAAACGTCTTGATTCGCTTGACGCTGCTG: 67.4 a.u.
CTTTCCCGATCTTGCAATGTGGGTGTAGCACATTTGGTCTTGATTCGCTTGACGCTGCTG: 74.5 a.u.
CGGAATTCCTGAACCGCCGTGACTCGGAGAATAAATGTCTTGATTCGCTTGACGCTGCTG: 80.9 a.u.
GGAAGGTACACAAGTCACATGGCAACTGGCTAGGATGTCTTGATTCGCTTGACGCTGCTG: 977 a.u.
CGGGGTTAAGTTTTTCACGTGTAGTGCTTGCAGCAGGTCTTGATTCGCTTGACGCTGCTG: 466 a.u.
AAACTATTTTTGGCAGACGTGTTGACTGATGATGATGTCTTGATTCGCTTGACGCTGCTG: 89.3 a.u.
CTTTCCCGATCTTGTCACACTACTTTAGCACATTTGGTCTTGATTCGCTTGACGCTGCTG: 95.6 a.u.
CATACCCAACCTTGAGCCGTGGGTGAAGATATTTGTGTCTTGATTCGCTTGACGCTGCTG: 70.7 a.u.
AACATCTGCGGACAGCACGTGCGGATTAATTCTCAAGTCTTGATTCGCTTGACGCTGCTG: 3010 a.u.
TGCGCAACAACTTGACTCGTGGGTGTATGTCTAGAAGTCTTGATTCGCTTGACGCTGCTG: 74.9 a.u.
CATACCCAACCTTGGTACGTGGGTGAAGATATTTGTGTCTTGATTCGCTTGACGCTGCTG: 66.3 a.u.
CTATATACATGTATACACGTGAGATAATAAATTATGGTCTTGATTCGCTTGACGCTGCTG: 1990 a.u.
AAATTACTAAGTTTTCACGTGAATTACCCCGTATGAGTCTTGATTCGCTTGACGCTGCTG: 787 a.u.
CATGATTTCCTATTGTGCGTGCCGAATTTACGGACGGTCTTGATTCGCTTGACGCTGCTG: 194 a.u.
TGTGATTCCTCGGGCCACGTGAAATGAATCAGCCCTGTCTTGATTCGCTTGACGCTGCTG: 823 a.u.
CTAACGAAGGTTTGGAAGGTGGGTGACAAGCCAAGTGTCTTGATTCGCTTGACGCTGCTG: 55.9 a.u.
TCTAATGGTACCCCAAATATCTTATTATGAGTTTTAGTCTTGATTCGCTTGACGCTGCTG: 62.1 a.u.
GAGGTTGGCCTTTTGCACGTAGCTGTTGCTGTTGCTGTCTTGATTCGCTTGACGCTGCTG: 69.6 a.u.
TTGTAAGGCTGTACCCACGTCTTGAAAGGCAATCTGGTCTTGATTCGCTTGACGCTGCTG: 70.5 a.u.
AAGTGGTTACAAATTCACGTGCTGTGATTGGAAACTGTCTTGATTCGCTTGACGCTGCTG: 1290 a.u.
CTTCTGTAAATTTGCAACGTGGGTGGACGCGCCCCGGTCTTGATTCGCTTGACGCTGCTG: 83.2 a.u.

Set 2
Target: Histone acetyltransferase KAT6A, both winged helices, GST fusion (KAT6A, Homo sapiens, UniProt Q92794, residues 1-181)
Technique: protein binding microarray
Form: double-stranded DNA, one strand shown
Matrix: in vitro
Tested at: not given
Setting: 8-mer, flanks averaged, mean of 2 arrays, mostly near background
Reference: not given
Reading: higher = stronger binding
Endpoint: E-score
Target sequence (chain): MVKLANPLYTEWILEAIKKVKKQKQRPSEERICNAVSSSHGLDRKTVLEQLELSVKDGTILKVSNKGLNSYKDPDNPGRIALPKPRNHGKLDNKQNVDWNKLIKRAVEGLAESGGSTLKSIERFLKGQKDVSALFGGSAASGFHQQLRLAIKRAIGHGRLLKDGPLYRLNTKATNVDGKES
TCGGATCA: 0.0612
GTATTCCA: 0.0445
TCACACAA: -0.0621
GGGATACC: 0.0797
ATTCCTCG: -0.0581
CCCCATCC: -0.107
AAGTGCAG: -0.194
CACAGCTC: -0.157
CGCACCGC: 0.283
CACCGCCC: 0.133
ATTTCCTA: -0.148
GGCGTGAA: 0.0989
AAAGATCA: 0.0115
GTCACGAC: -0.0677
GCCTGCCA: -0.106
CCTTGCCG: 0.19
CGACAGCG: 0.198
TACCCACA: -0.154
AACCTGCT: -0.268
AGGTACGC: 0.134
GACTGGAA: -0.0721
CTTGGAAC: -0.0517
ACGGCCGC: 0.405
ACGTCTTG: -0.0185
CACCTACC: -0.121

Set 3
Target: ABI1, truncated, D143A, DHFR fusion (Arabidopsis thaliana)
Technique: DHFR PCA, deep sequencing
Matrix: yeast
Setting: methotrexate growth selection, single substitutions
With: (+)-ABA 0.032 µM
Reference: wild-type fitted maximum
Reading: higher = stronger binding
Endpoint: relative binding score
Starting sequence: PYL1, truncated, DHFR fusion (Arabidopsis thaliana); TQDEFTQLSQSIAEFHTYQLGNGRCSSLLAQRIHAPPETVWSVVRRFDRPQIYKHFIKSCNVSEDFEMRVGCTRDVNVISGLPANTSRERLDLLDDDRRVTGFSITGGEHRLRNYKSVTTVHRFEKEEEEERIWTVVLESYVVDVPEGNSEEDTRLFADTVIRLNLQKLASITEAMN; partner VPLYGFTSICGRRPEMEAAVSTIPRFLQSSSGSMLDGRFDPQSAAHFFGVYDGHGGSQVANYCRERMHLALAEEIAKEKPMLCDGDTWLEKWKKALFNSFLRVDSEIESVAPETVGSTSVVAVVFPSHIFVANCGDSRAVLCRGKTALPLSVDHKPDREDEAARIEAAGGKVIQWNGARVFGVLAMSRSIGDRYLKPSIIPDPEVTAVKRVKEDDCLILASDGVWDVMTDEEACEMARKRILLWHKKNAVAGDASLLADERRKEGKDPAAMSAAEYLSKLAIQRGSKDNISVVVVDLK
R46D: -8.98%
I33R: 10.1%
D97I: 14.6%
R90T: 2.8%
D153C: -1.07%
R123T: 18.6%
L82Y: 47.9%
S59H: 3.83%
S59T: 12.1%
R113K: 58.3%
V142C: 23%
C25G: -4.2%
F47S: 21.7%
I172N: -11%
W134T: 35%

Set 4
Target: FOS, bZIP domain (human)
Technique: DHFR protein complementation
Matrix: yeast
Setting: single substitutions, most at no-binding floor
Reference: wild-type JUN-FOS pair
Reading: higher = stronger binding
Endpoint: binding fitness
Starting sequence: JUN, bZIP domain (human); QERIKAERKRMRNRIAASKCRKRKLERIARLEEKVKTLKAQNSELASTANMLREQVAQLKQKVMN; partner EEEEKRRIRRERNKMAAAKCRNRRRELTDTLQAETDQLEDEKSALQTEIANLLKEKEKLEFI
Q55C: -0.0765 natural log
E44I: -0.0938 natural log
V35R: -0.116 natural log
V56R: -1.33 natural log
A46M: -0.0534 natural log
E54T: -0.165 natural log
L38I: -0.79 natural log
A29R: -0.11 natural log

Set 5
Target: RNA binding protein fox-1 homolog 2, RRM domain, GST-SBP tag (RBFOX2, Homo sapiens, UniProt O43251-10, residues 100-194)
Technique: RNA Bind-n-Seq
Form: RNA
Matrix: in vitro
Tested at: 365 nM
Setting: natural RNA segment, single round, ends assumed
Reference: no-protein control
Reading: higher = stronger binding
Endpoint: RBNS enrichment (R)
Residues (chain): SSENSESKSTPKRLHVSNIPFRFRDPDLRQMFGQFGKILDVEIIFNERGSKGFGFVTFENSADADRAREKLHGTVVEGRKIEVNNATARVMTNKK
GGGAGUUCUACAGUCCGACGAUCAAAUCAUAUUCCAUUGUGUCAGUUAACAUAGAGUUUUAAAUGUAUGUAUUAUAAAUACCUGUAACCAAAAUCAUUUGAAGGCUUGAUAAAUUUUUAACAAAGUUUGUACAUGGAAUUCUCGGGUGCCAA: 0.963
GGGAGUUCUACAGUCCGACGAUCACAUGCAGUAUAGUAGGUCCCUGACCUUUACUUGCCUGAAAUCAGCAGUUAUCAAUAAUUCCCACCCAGGAAACUUUUAUUUAUUGUUUUUUAAAGAUAAAACUGCACAGUGGAAUUCUCGGGUGCCAA: 0.414
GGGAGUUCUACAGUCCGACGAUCCAGGGAUGCCUGGAGGCAUAUAUCCAGCUGCCACCAAGGGGCACUGUUUGUUCCCACUUAUGUGAGUGACCCCAUCCAUCCAUGACCAGAGGAUUAUUUUCCUGCCUUGGUGGAAUUCUCGGGUGCCAA: 0.621
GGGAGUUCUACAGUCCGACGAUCGUCCUCAAAGCCUUCUGUCUGUAUCAGGAAUGUAGUCUGAGACUGCCAGGAAGCAACAAGGAGAGAGAAACACUAACUAGUCUUCCUUUAUAACCCAUUCAUACUCUCUGUGGAAUUCUCGGGUGCCAA: 0.632
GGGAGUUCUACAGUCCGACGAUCUUGCUUGAGCAACGACUGAGGGCUGCCAGCUUUUGCUGACAAGGUAGGAUGGGACCCCCAAUAAGUGGGUAUGGAUAUAUUUUUUUUUGUCUCUGUUCUGUUUAAACUUAUGGAAUUCUCGGGUGCCAA: 0.821
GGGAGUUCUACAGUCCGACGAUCCACUAUUUUCACCUCUAAAUAUUACGUACUCAGUAGUGCCCUGCUUCUAGGGCUCUGAAUACGGGCUUAAAGUCAUCUUGUCCUGCUGGAAUUUGCUGUGCAGAGCCAUAUGGAAUUCUCGGGUGCCAA: 0.823
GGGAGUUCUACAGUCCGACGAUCAGCUAGCAAGGCUUCUUCAGCUUAUUGACCAGCCAGGGUUUCUUCUUGCCUACUCCGGUGCCUCUACUUGACUGGCCAAUCAGCCCUUGAGGGGCAGGUUCCCCCAGGUGUGGAAUUCUCGGGUGCCAA: 0.245
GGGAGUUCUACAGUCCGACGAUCUGUGUUGAUCCAAAUUUGCAUAGCUGUUUAAUGUUAAGUCAUGACAAUUUAUUUUUCUUGGCAUGCUAUGUAAACUUGAAUUUCCUAUGUAUUUUUAUUGUGGUGUUUUAUGGAAUUCUCGGGUGCCAA: 0.84
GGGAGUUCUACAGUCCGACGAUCGACUUGAUGUUUUGGGAUUGUCCUUAUUUUAACCUCAAGGUCUCGCAUGGUGGGGCCCCUGACCAACCUACACAAGUUCCCUCCCACAAGUGGACAUCAGUGUCUUCUCUUGGAAUUCUCGGGUGCCAA: 0.723
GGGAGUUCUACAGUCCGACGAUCUGAAUUGACGUUAAUGUGUUUUCACUGGAUUUUAUCUCUCUCAACUUCCUGCACUUAAAAUUUGAAACAGCAAAGGUUUGAGAUGAGAUGCUUGUGGCACACAGUUGGGUUGGAAUUCUCGGGUGCCAA: 0.374
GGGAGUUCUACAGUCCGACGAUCCGUUGUGUAGUGAGCACCUUGUUCCCACUUUUGUAGUCCUUUCCGUUCUGACCCGUCAGCAGCCUGCUUCUGACCCAAGAUGGCCUCGUGACUAGACCUGUUUUUAAGGAUGGAAUUCUCGGGUGCCAA: 0.326
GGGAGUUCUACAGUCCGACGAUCAAGUGUGUGCGCAUGCAUGAGUGCGCACACAAGUUUGAGUGUAUGAAUUCUUGUGCCCACACAUGCUGCCCUGCAUCCCUUCACUGCCUAUCCCCCUGCCCCCGCCUCACUGGAAUUCUCGGGUGCCAA: 14.2

Set 6
Target: CCNE2, cyclin fold, Cln2 fusion (human)
Technique: yeast growth competition, sequencing
Matrix: yeast
Setting: weak parent motif
Reference: not given
Reading: higher = stronger binding
Endpoint: normalised enrichment score
Starting sequence: FZR1 docking peptide (human); QDYERRLLRQIVI
QDYERRLLRQIAI [V12A]: 0.845
QDYERRLARQIVI [L8A]: -0.133
QDYERRLLRQAVI [I11A]: 0.713
QAYERRLLRQIVI [D2A]: 0.463
QDYEKRLFRQIVI [R5K L8F]: 0.428
QDYERRALRQIVI [L7A]: 0.72
QDAERRLLRQIVI [Y3A]: 0.596

Other studies, line by line
PhoQ, residues 284 288 289 292 302 303 ASVMEA — fold induction (PhoP, residues 12 14 15 18 19 ICWRQ (Escherichia coli, UniProt P23836); Sort-seq, item: YFP reporter; E. coli; PhoQ-PhoP variant library, with: 10 µM Mg2+; reference: high Mg2+ state, higher = stronger signaling): 8.17
